Measured values pooled from the literature.
Compare with care: the assays were run in different laboratories. Several values in a cell are separate wells, animals, samples, runs or records.
PTGS2: Prostaglandin G/H synthase 2 (PTGS2, Homo sapiens, UniProt P35354)
Chain of UniProt P35354 (whole entry, looked up): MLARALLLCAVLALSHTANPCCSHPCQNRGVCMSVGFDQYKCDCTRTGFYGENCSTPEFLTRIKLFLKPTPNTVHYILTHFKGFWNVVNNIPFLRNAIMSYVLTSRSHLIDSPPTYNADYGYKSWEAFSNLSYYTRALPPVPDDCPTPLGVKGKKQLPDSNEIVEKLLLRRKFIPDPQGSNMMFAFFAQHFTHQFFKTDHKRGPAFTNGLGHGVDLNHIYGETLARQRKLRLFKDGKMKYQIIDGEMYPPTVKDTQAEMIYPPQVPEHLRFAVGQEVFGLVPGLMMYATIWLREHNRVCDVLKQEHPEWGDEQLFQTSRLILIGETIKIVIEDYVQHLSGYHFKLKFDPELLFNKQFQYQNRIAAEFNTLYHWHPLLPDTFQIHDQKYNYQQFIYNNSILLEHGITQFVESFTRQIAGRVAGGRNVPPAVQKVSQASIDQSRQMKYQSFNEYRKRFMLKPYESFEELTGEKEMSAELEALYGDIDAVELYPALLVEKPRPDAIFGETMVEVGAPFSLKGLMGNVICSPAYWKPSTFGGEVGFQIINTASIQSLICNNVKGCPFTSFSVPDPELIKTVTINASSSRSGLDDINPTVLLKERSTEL
CPL: CPL (Toxoplasma gondii, UniProt Q6DMN0)
Chain of UniProt O14965 (whole entry, looked up): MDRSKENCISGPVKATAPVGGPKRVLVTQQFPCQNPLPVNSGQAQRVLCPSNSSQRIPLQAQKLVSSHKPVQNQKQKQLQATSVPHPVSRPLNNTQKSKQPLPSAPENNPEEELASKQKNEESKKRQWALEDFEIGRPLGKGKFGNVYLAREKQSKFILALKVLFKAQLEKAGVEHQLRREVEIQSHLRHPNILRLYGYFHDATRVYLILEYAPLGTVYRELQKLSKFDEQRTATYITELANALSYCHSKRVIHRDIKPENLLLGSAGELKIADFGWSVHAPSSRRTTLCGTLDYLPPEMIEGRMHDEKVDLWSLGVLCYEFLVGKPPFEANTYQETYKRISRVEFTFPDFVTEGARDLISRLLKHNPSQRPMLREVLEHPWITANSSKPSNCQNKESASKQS
Chain of UniProt Q01064 (whole entry, looked up): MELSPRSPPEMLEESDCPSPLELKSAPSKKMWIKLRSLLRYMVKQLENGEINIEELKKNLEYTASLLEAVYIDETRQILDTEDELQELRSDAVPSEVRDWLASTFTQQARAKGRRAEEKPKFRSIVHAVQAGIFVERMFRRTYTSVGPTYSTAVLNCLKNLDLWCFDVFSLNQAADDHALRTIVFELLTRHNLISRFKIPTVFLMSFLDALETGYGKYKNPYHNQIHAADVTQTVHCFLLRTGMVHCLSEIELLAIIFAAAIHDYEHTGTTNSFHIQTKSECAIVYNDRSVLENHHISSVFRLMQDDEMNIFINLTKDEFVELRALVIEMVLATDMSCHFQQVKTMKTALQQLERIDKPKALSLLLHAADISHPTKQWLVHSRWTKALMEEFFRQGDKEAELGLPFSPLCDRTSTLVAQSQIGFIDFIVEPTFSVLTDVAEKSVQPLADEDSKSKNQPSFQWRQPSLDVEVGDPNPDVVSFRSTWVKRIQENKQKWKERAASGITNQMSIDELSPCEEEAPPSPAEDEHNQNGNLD
Chain of UniProt P33533 (whole entry, looked up): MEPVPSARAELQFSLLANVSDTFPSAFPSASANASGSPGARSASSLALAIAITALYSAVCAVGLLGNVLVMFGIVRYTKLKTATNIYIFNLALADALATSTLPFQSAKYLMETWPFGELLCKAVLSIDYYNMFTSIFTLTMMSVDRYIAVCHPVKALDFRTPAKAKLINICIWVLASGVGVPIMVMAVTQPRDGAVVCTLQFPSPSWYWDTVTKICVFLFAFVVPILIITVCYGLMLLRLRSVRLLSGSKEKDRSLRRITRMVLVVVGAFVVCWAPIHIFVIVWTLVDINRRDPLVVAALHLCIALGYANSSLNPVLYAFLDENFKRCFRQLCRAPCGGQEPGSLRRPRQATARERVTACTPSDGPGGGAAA
Chain of UniProt P62937 (whole entry, looked up): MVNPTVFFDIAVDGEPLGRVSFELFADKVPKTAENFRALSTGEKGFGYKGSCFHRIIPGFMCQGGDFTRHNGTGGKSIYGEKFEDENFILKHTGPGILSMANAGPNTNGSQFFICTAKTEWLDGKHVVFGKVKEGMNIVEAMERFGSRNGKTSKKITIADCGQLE
Chain of UniProt P35462 (whole entry, looked up): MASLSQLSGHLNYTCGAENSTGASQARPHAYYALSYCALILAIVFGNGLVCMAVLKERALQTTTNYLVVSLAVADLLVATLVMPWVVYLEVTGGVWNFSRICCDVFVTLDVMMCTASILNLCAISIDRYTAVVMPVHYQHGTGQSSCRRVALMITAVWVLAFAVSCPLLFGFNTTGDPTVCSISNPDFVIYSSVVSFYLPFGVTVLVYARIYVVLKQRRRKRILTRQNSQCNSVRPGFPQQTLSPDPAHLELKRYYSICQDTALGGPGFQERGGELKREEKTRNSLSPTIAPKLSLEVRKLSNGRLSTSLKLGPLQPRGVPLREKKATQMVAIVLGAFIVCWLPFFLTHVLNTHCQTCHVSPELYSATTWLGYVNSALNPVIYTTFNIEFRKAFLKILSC
Chain of UniProt P08575 (whole entry, looked up): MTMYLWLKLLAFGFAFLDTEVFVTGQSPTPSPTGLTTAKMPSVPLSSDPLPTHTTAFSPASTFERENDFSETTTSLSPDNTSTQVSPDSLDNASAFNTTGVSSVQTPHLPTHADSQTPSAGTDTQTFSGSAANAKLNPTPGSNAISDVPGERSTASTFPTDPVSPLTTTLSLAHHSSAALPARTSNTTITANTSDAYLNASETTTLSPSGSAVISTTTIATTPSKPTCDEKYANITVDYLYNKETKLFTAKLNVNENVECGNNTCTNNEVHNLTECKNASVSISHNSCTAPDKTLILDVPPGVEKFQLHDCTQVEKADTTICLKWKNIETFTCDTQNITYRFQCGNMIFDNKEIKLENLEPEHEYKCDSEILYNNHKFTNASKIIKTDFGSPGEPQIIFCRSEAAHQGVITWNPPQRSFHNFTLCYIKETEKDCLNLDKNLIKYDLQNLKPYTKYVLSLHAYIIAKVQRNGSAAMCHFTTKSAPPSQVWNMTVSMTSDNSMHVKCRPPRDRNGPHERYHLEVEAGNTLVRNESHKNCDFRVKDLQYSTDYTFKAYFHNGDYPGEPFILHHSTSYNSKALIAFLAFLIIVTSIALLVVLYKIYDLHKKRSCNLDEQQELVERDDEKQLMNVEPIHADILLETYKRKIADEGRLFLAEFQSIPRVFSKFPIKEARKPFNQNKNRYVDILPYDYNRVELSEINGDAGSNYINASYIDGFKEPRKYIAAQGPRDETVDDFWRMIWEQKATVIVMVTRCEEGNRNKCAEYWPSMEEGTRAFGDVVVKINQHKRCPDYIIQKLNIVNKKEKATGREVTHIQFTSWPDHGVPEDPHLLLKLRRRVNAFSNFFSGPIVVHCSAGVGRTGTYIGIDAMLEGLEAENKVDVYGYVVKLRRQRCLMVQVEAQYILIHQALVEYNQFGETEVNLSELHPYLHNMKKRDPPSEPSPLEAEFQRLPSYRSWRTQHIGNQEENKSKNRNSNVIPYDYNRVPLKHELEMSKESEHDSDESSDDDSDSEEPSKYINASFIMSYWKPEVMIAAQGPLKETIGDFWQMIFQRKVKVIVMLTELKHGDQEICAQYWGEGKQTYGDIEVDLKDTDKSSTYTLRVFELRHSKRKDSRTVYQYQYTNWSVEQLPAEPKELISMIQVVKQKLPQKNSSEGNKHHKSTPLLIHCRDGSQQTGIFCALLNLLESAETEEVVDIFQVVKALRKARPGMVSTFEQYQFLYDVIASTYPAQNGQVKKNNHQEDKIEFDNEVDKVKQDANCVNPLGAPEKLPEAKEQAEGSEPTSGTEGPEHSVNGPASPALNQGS
Chain of UniProt P28300 (whole entry, looked up): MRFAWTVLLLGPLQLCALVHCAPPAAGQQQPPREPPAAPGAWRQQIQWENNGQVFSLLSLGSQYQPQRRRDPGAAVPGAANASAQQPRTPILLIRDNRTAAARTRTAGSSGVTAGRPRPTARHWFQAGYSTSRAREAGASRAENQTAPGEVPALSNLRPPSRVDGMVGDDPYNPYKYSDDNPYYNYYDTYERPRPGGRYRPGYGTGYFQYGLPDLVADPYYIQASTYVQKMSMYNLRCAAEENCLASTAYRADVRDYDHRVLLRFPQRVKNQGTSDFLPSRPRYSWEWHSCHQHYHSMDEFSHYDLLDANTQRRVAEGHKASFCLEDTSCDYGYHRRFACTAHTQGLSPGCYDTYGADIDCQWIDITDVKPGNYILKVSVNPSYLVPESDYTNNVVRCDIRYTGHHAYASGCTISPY

| SMILES | target | assay | test system | conditions | scale | selectivity ratio |
| --- | --- | --- | --- | --- | --- | --- |
| N#CC1=C(N)n2c(nnc2-c2ccccc2)NC1c1ccc(Br)cc1 (stereo not shown) | PTGS2 | enzyme activity |  |  | baseline: IC50 COX-1 over IC50 COX-2 | 13 |
| N[C@@H](CCC(=O)N[C@@H](CS[Se]Cc1ccc(C(=O)Nc2cc(C(F)(F)F)c(Br)c(C(F)(F)F)c2)cc1)C(=O)NCC(=O)O)C(=O)O | Receptor-type tyrosine-protein phosphatase C (PTPRC, Homo sapiens, UniProt P08575) | enzyme activity |  | added: pNPP, GSH 1 mM | baseline: IC50 PTPRC over mPTPA | > 100 |
| Cc1cc(Nc2nc(C[C@@]3(C(=O)O)CCN(Cc4cccc(Cl)c4F)[C@H](C)C3)cc(C)c2F)[nH]n1 | Aurora kinase A (AURKA, Homo sapiens, UniProt O14965) | Aurora kinase phosphorylation, Western blot | NCI-H446 |  | baseline: Aurora A over Aurora B | > 2000 fold |
| N[C@@H](Cc1ccc(C(=O)NCCc2ccc3ccccc3c2)cc1)C(=O)N1Cc2ccccc2C[C@H]1C(=O)N[C@@H](Cc1ccccc1)C(=O)N[C@@H](Cc1ccccc1)C(=O)O | Delta-type opioid receptor (Oprd1, Rattus norvegicus, UniProt P33533) | binding, [3H]DSLET displacement | rat brain membranes |  | baseline: Ki mu over Ki delta | 250 to 520 |
| CC(=O)OC1OC(OC(C)=O)C2CC(O)(C3(C)CCCC(C)(C)C3)CCC12 (stereo not shown) | Peptidyl-prolyl cis-trans isomerase A (PPIA, Homo sapiens, UniProt P62937) | PPIase activity, inhibitor |  |  | baseline: CypD IC50 over target IC50 | ~4 fold |
| N#Cc1nc(N2CCOCC2)nc(N(Cc2ccc(F)cc2)CC2CCNCC2)n1 | CPL | enzyme activity, inhibitor |  |  | baseline: human over Toxoplasma IC50 | 0.8 |
| N#CC1=C(N)n2c(nnc2-c2ccncc2)NC1c1ccc(Cl)cc1 (stereo not shown) | PTGS2 | enzyme activity |  |  | baseline: IC50 COX-1 over IC50 COX-2 | 11 |
| Cc1cc(O)cc(C)c1C[C@H](N)C(=O)N[C@@H]1CSSC[C@@H](NC(=O)[C@@H](N)Cc2c(C)cc(O)cc2C)C(=O)NCC(=O)N[C@@H](Cc2ccccc2)C(=O)NNC(=O)[C@H](Cc2ccccc2)NC(=O)CNC1=O | human opioid receptors | binding |  |  | baseline: DOR over MOR | 16 fold |
| C=CCCN(Cc1ccc(F)cc1)c1nc(C#N)nc(N2CCOCC2)n1 | CPL | enzyme activity, inhibitor |  |  | baseline: human over Toxoplasma IC50 | 0.44 |
| COCCCN1CCc2c(Cc3ccc(Cl)cc3)[nH]c3c(OC(F)F)ccc(c23)C1=O | Dual specificity calcium/calmodulin-dependent 3',5'-cyclic nucleotide phosphodiesterase 1B (Homo sapiens, UniProt Q01064) | enzyme activity, inhibitor |  |  | baseline: PDE1B IC50 over PDE5A1 IC50 | 814 |
| CC(C)CCN(Cc1ccccc1[N+](=O)[O-])c1nc(C#N)nc(N2CCOCC2)n1 | CPL | enzyme activity, inhibitor |  |  | baseline: human over Toxoplasma IC50 | 3 and 3.6 |
| Cc1ccc2c(n1)c(-c1cccc(S(C)(=O)=O)c1)c(C)n2C/C(F)=C/CN | Protein-lysine 6-oxidase (Homo sapiens, UniProt P28300) | inhibitor, Amplex Red |  |  | baseline: IC50 Protein-lysine 6-oxidase over IC50 LOXL2 | > 80 fold |
| N#Cc1nc(N2CCOCC2)nc(N(Cc2ccccc2[N+](=O)[O-])CC2CCCNC2)n1 (stereo not shown) | CPL | enzyme activity, inhibitor |  |  | baseline: human over Toxoplasma IC50 | 0.3 |
| COc1ccccc1N1CCN(CCCCNC(=O)/N=N/c2ccc(F)cc2)CC1 | D(3) dopamine receptor (DRD3, Homo sapiens, UniProt P35462) | radioligand binding | CHO membranes | added: [3H]spiperone | baseline: Ki D2 over Ki D3 | 10 |
| CC(C)CCN(Cc1cccnc1)c1nc(C#N)nc(N2CCOCC2)n1 | CPL | enzyme activity, inhibitor |  |  | baseline: human over Toxoplasma IC50 | 0.7 |
| CC(C)[C@@H](NC(=O)[C@@H](C)c1cccc(C(=O)c2ccccc2)c1)C(=O)N[C@H](CCC(=O)O)C(=O)N[C@@H](C(=O)N[C@H](CCC(=O)O)C(=O)O)C(C)C | PTGS2 | fluorescence |  |  | baseline: COX-1 IC50 over COX-2 IC50 | 4.8 |

Repeated from above:
| SMILES | target | assay | test system | conditions | scale | selectivity ratio |
| --- | --- | --- | --- | --- | --- | --- |
| COc1ccccc1N1CCN(CCCCNC(=O)/N=N/c2ccc(F)cc2)CC1 | D(3) dopamine receptor (DRD3, Homo sapiens, UniProt P35462) | radioligand binding | CHO membranes | added: [3H]spiperone | baseline: Ki D2 over Ki D3 | 10 |
